Measured values of several laboratories.
Every numbered part comes from another study and shows a few of its results, in no order. Changes are numbered by the printed parent chain.

Study 1
Target: Fragile X messenger ribonucleoprotein 1, C-terminal low-complexity region (Fmr1, Mus musculus, UniProt P35922)
Method: RNA Bind-n-Seq
Form: RNA
Matrix: in vitro
Concentration: 200 nM
Notes: whole 134-nt RNA, ends assumed
With: 150 mM LiCl
Baseline: input library
Reading: higher = stronger binding
Each molecule: 7-deaza-guanosine replaces G
`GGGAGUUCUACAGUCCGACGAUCUGGCCCUGGUGGCAUGCGGGGAGGAAGAGGUGGCCUCAUGGAUCGUGGUGGUCACGGUGGAAUGUUCAGAGGUGGCCGUGGUGGAGACAGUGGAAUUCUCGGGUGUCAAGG` has a log2 enrichment of -0.548.
The log2 enrichment of `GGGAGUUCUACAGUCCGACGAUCCCUGUGCUACACAUCGUAUGUACCGAAUCGGGGUUUUUUUGGUUUUUUUGGUUUUUUUGGAAAGUAUUAUGUUACGCCGUUCGGAUCUGCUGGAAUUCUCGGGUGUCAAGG` is reported as 0.317.
For `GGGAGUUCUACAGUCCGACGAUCUCCUCAAGUCCUGUGCUACACAUCGUAUGUACCGAAUCGGGGCGGGCGGCGGAAAGUAUUAUGUUACGCCGUUCGGAUCUGCACUUCCAGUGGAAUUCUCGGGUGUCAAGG`, the log2 enrichment was -0.332.
For `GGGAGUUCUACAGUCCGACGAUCGUCCUGUGCUACACAUCGUAUGUACCGAAUCGGGGCCCCCGGGCCCCCGGGGCCCCCGGAAAGUAUUAUGUUACGCCGUUCGGAUCUGCAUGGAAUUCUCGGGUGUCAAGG`, the log2 enrichment was -2.43.
For `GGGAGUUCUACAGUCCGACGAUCGCAGGAAGUAAACACAAAUGGAAAUGCUUCGGAUAGUGGCAGGGGUGGGGGUUGCUAAGGAAAGGGUGGGAUGGGAGUGGGUAAAGAGUUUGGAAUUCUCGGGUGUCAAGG`, the log2 enrichment was 1.56.
For `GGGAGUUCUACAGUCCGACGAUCCAAGUCCUGUGCUACACAUCGUAUGUACCGAAUCGGGGAAAGGGAAAGGGAAAGGAAAGUAUUAUGUUACGCCGUUCGGAUCUGCACUUCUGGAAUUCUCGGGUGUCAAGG`, the log2 enrichment was -0.447.
With `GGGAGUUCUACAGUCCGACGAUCAAGUCCUGUGCUACACAUCGUAUGUACCGAAUCGGAAAAAGGUUUGGAAAAAAAGGAAAGUAUUAUGUUACGCCGUUCGGAUCUGCACUUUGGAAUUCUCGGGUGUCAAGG` the log2 enrichment was -2.65.
With `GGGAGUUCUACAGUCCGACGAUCCAAGUCCUGUGCUACACAUCGUAUGUACCGAAUCGGGGAAAGGAAAGGGAAAGGGAAAGUAUUAUGUUACGCCGUUCGGAUCUGCACUUCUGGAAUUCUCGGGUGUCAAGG` the log2 enrichment was -0.705.
The log2 enrichment of `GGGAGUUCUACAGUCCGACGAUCUUGAGAAAAGCACCCAUAAUUUGCUACUUGAGGAUUUUAUUCCCUGGAUUCUCUGGAUGCUCAUUGCAUGAAAAGUGGAAAAGUUUAGAUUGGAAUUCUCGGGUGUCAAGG` is reported as -1.49.
With `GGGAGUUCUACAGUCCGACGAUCUCAAGUCCUGUGCUACACAUCGUAUGUACCGAAUCGGGUUUGGGUUUGGGUGGGAAAGUAUUAUGUUACGCCGUUCGGAUCUGCACUUCCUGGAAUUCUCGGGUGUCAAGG` the log2 enrichment was -1.15.
`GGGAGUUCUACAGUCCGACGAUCUAACUUUAGAGGAGGAUCUGAUGGAUAUGGCAGUGGACGUGGAUUUGGGGAUGGCUAUAAUGGGUAUGGAGGAGGACCUGGAGGUGGCGAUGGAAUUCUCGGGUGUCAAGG` gave a log2 enrichment of 0.534.

Study 2
Organism: Saccharomyces cerevisiae
Read-out: binding
Method: competitive growth deep sequencing
Form: peptide
Strain: cyclin D3-Cln2 fusion strain
Concentration: concentration not given
Notes: peptide tiling library
Reading: direction not given
`NNIRKALSFDNRGEEH`: “growth enrichment score” 1.5.
For `VLVRTSACRSLFGPVD`, “growth enrichment score” read -0.338.
For `DGCSPIKNWSPMRL`, “growth enrichment score” read -0.249.
`KDDDKAWEYEERDRRS`: “growth enrichment score” 0.743.
For `SGYLTDENEVGFRG`, “growth enrichment score” read 0.491.
`PQWPCGKHKRVLIFAS`: “growth enrichment score” -0.625.
`TRRRLFVENDSP` — result for “growth enrichment score”: -0.792.

Study 3
Target: ABI1, truncated, D143A, DHFR fusion (Arabidopsis thaliana)
Method: DHFR PCA, deep sequencing
Matrix: yeast
Notes: methotrexate growth selection, single substitutions
With: (+)-ABA 2500 µM
Baseline: wild-type fitted maximum
Reading: higher = stronger binding
Parent: PYL1, truncated, DHFR fusion (Arabidopsis thaliana); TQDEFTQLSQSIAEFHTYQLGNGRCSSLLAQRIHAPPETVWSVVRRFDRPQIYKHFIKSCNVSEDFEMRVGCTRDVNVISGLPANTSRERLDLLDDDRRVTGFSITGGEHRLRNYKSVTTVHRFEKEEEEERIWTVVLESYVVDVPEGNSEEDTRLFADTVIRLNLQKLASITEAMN
`S42C`: “relative binding score” 99.8%.
`V145Q` — result for “relative binding score”: 89.3%.
Under “relative binding score”, `K126N` is recorded as 102%.
For `I57K`, “relative binding score” read -1.08%.
`P37L` — result for “relative binding score”: 95.8%.
`K168N` — result for “relative binding score”: 99%.
`S80P`: “relative binding score” 63.9%.
`V136D` — result for “relative binding score”: 82.7%.
`L91F`: “relative binding score” 59.4%.
`V44D`: “relative binding score” -4.33%.
Under “relative binding score”, `T1P` is recorded as 103%.
Under “relative binding score”, `I52Q` is recorded as 91.6%.
For `H16L`, “relative binding score” read 29.1%.
`T173N`: “relative binding score” 85.5%.
`W134E` — result for “relative binding score”: 114%.
For `Q19G`, “relative binding score” read 103%.
`E64W` — result for “relative binding score”: 88.1%.
Under “relative binding score”, `E14M` is recorded as 80.5%.
`A175S`: “relative binding score” 95.4%.
`F124G` — result for “relative binding score”: 108%.
Under “relative binding score”, `K168V` is recorded as 94.5%.
Under “relative binding score”, `Q7D` is recorded as 104%.
`N149K`: “relative binding score” 71.2%.
Under “relative binding score”, `I79Q` is recorded as 101%.
For `L164V`, “relative binding score” read 96%.

Study 4
Target: Interferon regulatory factor 5, full length, phosphomimetic (IRF5, Homo sapiens, UniProt Q13568-2, residues 1-514, K96S/S451D/S453D/S456D/S462D)
Method: protein-binding microarray
Form: double-stranded DNA, one strand shown
Matrix: in vitro
Concentration: 250 nM
Notes: 60-bp whole probe
With: salmon DNA 0.4 mg/ml
Baseline: random background probes
Reading: higher = stronger binding
All sequences stand within: GCCTAGCAC … GTCTTGATTCGCTTGACGCTGCTG
`TTAGGTTTCGGGCTCGGTTAGTGCTAG` gave a log fluorescence of 6.01 z-score.
`TTAGGTCTCCTACTGCCTTAGTGCTAG` has a log fluorescence of -0.252 z-score.
`GACGATTTCAGTTTCCAGACGTGCTAG` gave a log fluorescence of 1.69 z-score.
`TTAGGTATCTACTATCGGTTAGTGCTA` gave a log fluorescence of 7.84 z-score.
`AATGCCCTCGGTTTACAGGGGTGCTAG` has a log fluorescence of 0.0954 z-score.
`TTAGGTCTCCTTATCCCTTAGTGCTAG` has a log fluorescence of -0.123 z-score.
The log fluorescence of `GGGCCCATCATTCCGACCCTGTGCTAG` is reported as -0.376 z-score.
The log fluorescence of `TTAGGACTGGGGTATCGGTTTGTGCTA` is reported as 2.04 z-score.
`TCAACTTTGCTCTGTGCAACTGTGCTA` has a log fluorescence of 0.344 z-score.
The log fluorescence of `TTAGGTGTCCTTCTCCTTTAGTGCTAG` is reported as 0.071 z-score.
`TCATGTTTCCATTTTCTACTGTGCTAG` gave a log fluorescence of 2.01 z-score.
With `TCACATTTTTTTTTTCAACTGTGCTAG` the log fluorescence was 1.1 z-score.
The log fluorescence of `TTAGATCTCAGTCTGGATTAGTGCTAG` is reported as -0.0745 z-score.
`TTAGGACTGCGACTGGGTTAGTGCTAG` gave a log fluorescence of -0.607 z-score.
The log fluorescence of `TTAGGACTGGGTTTCGGTTCGTGCTAG` is reported as 6.95 z-score.
`GACGGTATCGGTATCGGGAAGTGCTAG` has a log fluorescence of 7.37 z-score.
The log fluorescence of `TCAATGATTGGTTGAACACTGTGCTAG` is reported as 0.0608 z-score.
The log fluorescence of `TTAGGTTTCGTCTATCGGTTAGTGCTA` is reported as 7.83 z-score.
The log fluorescence of `TCAACTTTCTGAATGCTACTGTGCTAG` is reported as 2.33 z-score.
The log fluorescence of `TTAGGACTGGGTCGCGGTTAGTGCTAG` is reported as -0.421 z-score.
`GACGATATCAGTATCGAGTCGTGCTAG` has a log fluorescence of 3.86 z-score.
For `CACGATTTCAGACTGGAGACGTGCTAG`, the log fluorescence was 0.258 z-score.
The log fluorescence of `TTAGATCTCATACTGGATTAGTGCTAG` is reported as 0.168 z-score.
With `TTGGGACTGGGTCTCGGTTAGTGCTAG` the log fluorescence was -0.225 z-score.
With `TCATTTCCCAGAACTGGAACTGTGCTA` the log fluorescence was 0.413 z-score.

Further values, each from its own experiment
`PhoQ, residues 284 288 289 292 302 303 TNSAEL` has a fold induction of 2.14 (PhoP, residues 12 14 15 18 19 SMASL (Escherichia coli, UniProt P23836); Sort-seq, refers to: YFP reporter; E. coli; PhoQ-PhoP variant library, with: 10 µM Mg2+; baseline: high Mg2+ state, higher = stronger signaling).

For quick reference, copied from above (study 4):
With `TCACATTTTTTTTTTCAACTGTGCTAG` the log fluorescence was 1.1 z-score.
The log fluorescence of `TTAGATCTCAGTCTGGATTAGTGCTAG` is reported as -0.0745 z-score.
`TTAGGACTGCGACTGGGTTAGTGCTAG` gave a log fluorescence of -0.607 z-score.
The log fluorescence of `TTAGGACTGGGTTTCGGTTCGTGCTAG` is reported as 6.95 z-score.
`GACGGTATCGGTATCGGGAAGTGCTAG` has a log fluorescence of 7.37 z-score.
The log fluorescence of `TCAATGATTGGTTGAACACTGTGCTAG` is reported as 0.0608 z-score.
The log fluorescence of `TTAGGTTTCGTCTATCGGTTAGTGCTA` is reported as 7.83 z-score.
The log fluorescence of `TCAACTTTCTGAATGCTACTGTGCTAG` is reported as 2.33 z-score.
The log fluorescence of `TTAGGACTGGGTCGCGGTTAGTGCTAG` is reported as -0.421 z-score.
